Results gathered from unrelated publications.
Parts stem from different laboratories: compare values within a part only. Changes are numbered by the printed parent chain.
UniProt P41143, sequence (whole entry, looked up): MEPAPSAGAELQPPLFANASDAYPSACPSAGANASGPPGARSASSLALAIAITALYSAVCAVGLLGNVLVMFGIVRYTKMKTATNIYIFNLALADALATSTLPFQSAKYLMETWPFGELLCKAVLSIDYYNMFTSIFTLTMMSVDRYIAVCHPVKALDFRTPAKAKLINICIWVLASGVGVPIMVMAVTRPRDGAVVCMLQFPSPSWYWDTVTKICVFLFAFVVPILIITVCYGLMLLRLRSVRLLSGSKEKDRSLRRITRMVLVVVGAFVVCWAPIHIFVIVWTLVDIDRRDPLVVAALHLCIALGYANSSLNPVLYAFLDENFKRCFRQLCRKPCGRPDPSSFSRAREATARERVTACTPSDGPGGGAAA

Study 1 — read-out: peptide-MHC binding; form: peptide; tested at: concentration not given
Target: HLA class I histocompatibility antigen, A alpha chain, allele A*25:01 (Homo sapiens, UniProt P04439)
| Molecule | binding |
| --- | --- |
| KIVPLPPMY | inactive |
| VVDALRNIY | inactive |
| VMTDGPANK | inactive |
| RTLGVFRYK | inactive |
| YQTYVSPGA | inactive |
| VTENKKIQY | inactive |
| PQVLGGLSF | inactive |
| KLLARFLFE | inactive |

Study 2 — target: CCND3, cyclin fold, Cln2 fusion (human); technique: yeast growth competition, sequencing; matrix: yeast; setting: weak parent motif; relative to: not given; direction: higher = stronger binding; parent: viral docking peptide; YKVKRRLVFGADD
| Change | normalised enrichment score |
| --- | --- |
| YKVKRRLVFGATD [D12T] | 0.388 |
| YKVKARLVFGADD [R5A] | 0.276 |
| YKVKRRLVTGADD [F9T] | 0.325 |
| YFVKRRLVFGADD [K2F] | 0.3 |
| YKVKRRLVFGRDD [A11R] | 0.105 |
| YKVKRRLEFGADD [V8E] | 0.519 |
| YKVKRQLVFGADD [R6Q] | 0.0208 |
| YKVKRRFVFGADD [L7F] | 0.864 |

Study 3 — target: UBE2W UBC core domain (UniProt Q96B02); technique: yeast two-hybrid; matrix: yeast; setting: mostly zero background; relative to: not given; direction: higher = stronger interaction
B1: RNF186 RING domain (UniProt Q9NXI6); chain HSGSTECDLECLVCREPYSCPRLPKLLACQHAFCAICLKLLLCVQDNTWSITCPLCRKVTAVPGGLI
B2: RING1 RING domain (UniProt Q06587); chain SPRSLHSELMCPICLDMLKNTMTTKECLHRFCSDCIVTALRSGNKECPTCRKKLVSKRSLR
B3: RNF182 RING domain (UniProt Q8N6D2); chain AESQASDELECKICYNRYNLKQRKPKVLECCHRVCAKCLYKIIDFGDSPQGVIVCPFCRFETCLPDDEV
B4: MARCHF1 RING domain (UniProt Q8TCQ1); chain TAPRSQSRLSVCPSTQDICRICHCEGDEESPLITPCRCTGTLRFVHQSCLHQWIKSSDTRCCELCKYDFIMETKLKPLRKWE
B5: CNOT4 RING domain (UniProt O95628); chain MSRSPDAKEDPVECPLCMEPLEIDDINFFPCTCGYQICRFCWHRIRTDENGLCPACRKPYPED
B6: RNF103 RING domain (UniProt O00237); chain WPADMLHCTECVVCLENFENGCLLMGLPCGHVFHQNCIVMWLAGGRHCCPVCRWPSYKKKQPY
B7: TRIM41 RING domain (UniProt Q8WV44); chain PVQTLQEEAVCAICLDYFTDPVSIGCGHNFCRVCVTQLWGGEDEEDRDELDREEEEEDGEEE
Target sequence (chain): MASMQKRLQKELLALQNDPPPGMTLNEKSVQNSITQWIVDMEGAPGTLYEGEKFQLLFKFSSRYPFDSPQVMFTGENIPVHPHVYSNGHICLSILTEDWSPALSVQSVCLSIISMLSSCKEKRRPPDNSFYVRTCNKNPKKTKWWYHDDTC
| Molecule | lacZ reporter activity |
| --- | --- |
| B1 (RNF186 RING domain) | 2520 |
| B2 (RING1 RING domain) | 0 |
| B3 (RNF182 RING domain) | 0 |
| B4 (MARCHF1 RING domain) | 0 |
| DDVLTKDAGECVICLEELLQGDTIARLPCLCIYHKSCIDSWFEVNRSCPEHPAD (ZNRF1 RING domain (UniProt Q8ND25)) | 0 |
| B5 (CNOT4 RING domain) | 10400 |
| B6 (RNF103 RING domain) | 9630 |
| B7 (TRIM41 RING domain) | 0 |

Mixed results
| SMILES | target | assay | conditions | quantity | result |
| --- | --- | --- | --- | --- | --- |
| O=C(Nc1cccnn1)N1CCC(=Cc2cccc(Oc3ccc(C(F)(F)F)cn3)c2)CC1 | Delta-type opioid receptor (OPRD1, Homo sapiens, UniProt P41143) | binding, radioligand binding | 10 µM | inhibition | 12.3% |

A few entries again (study 1):
| Molecule | binding |
| --- | --- |
| YQTYVSPGA | inactive |
| PQVLGGLSF | inactive |
| KLLARFLFE | inactive |
| RTLGVFRYK | inactive |
